Experimental data collected from several papers.
“And” joins repeats or separate records; there may be more than shown. ± marks the error that the study gave. Ends that are not written are not given here. The star is where a group is joined. * marks the point of attachment.
HLA class I histocompatibility antigen, B alpha chain: HLA class I histocompatibility antigen, B alpha chain (Homo sapiens, UniProt P01889)
Genome polyprotein NS3 helicase domain: Genome polyprotein, NS3 helicase domain (Hepatitis C virus genotype 1b, UniProt Q9WMX2)
CDK5 with p25: Cyclin-dependent kinase 5, with p25 (CDK5, Homo sapiens, UniProt Q00535)
P4HB: Protein disulfide-isomerase (P4HB, Homo sapiens, UniProt P07237)
B1: chain MSEILPYGEDKMGRFGADPEGSDLSFSCRLQDTNSFFAGNQAKRPPKLGQIGRAKRVVIEDDRIDDVLKGMGEKPPSGV

`NLVAQLENEVASLENENETLKKKNLHKKDLIAYLEKEIANLRKKIEE` gave a Tm of 43 °C (CREB/ATF bZIP transcription factor (CREBZF, Homo sapiens, UniProt Q9NS37); heterodimer thermal denaturation, CD; peptide, 1 M GuHCl; 4 µM total peptide, pH 7.4).
The binding of `GAKGAAGPM` is reported as 59% (HLA class I histocompatibility antigen, B alpha chain; iTopia initial binding; peptide; 11 µM, 18 h, 21 °C, HLA-B7 allele; reference: allele positive control peptide).
`B1` has a ΔH of -9.75 kcal/mol and -9.7 kcal/mol (Calcium/calmodulin-dependent protein kinase type II subunit alpha (CAMK2A, Homo sapiens, UniProt Q9UQM7, D135N); binding, ITC; kinase domain D135N; added: AMPPNP).
`SFFYVTETTF` has a binding of 107% (human HLA-A*2401 (HLA-A24); iTopia initial binding; peptide; 11 µM, 18 h, 21 °C; reference: allele positive control peptide).
With `alkynyl-geranylgeranyl pyrophosphate` the Vmax was 8.4 fmol/min (geranylgeranyltransferase type-I (Rattus norvegicus, UniProt P53610+Q04631); peptide prenylation, substrate, fluorescence anisotropy; added: FAM-RHOA peptide).
With `REGYEMVFDGKPQHTNVCF` the binding was greater than 2 fold (HLA-DR, human; DELFIA; peptide; 10 µM, 48 h, 37 °C; reference: peptide alone).
Under “binding affinity fold difference”, `KQWLVWLFL` is recorded as roughly 20 fold (TCR; SPR; peptide; concentration not given, 25 °C; reference: peptide over wild-type peptide).
With `maltotriose` the thermal shift was 20.1 °C (uncharacterized protein (Pelagibacter ubique, UniProt Q4FMK2); binding, DSF; higher = stronger binding).
With `UCL 2077` the inhibition was 0% (Genome polyprotein NS3 helicase domain; NS3 helicase DNA binding, fluorescence, Cy5-dT15; 100 µM).
`KEAFWDRCLSIINLMSSKMLQINA` gave an activity change of 2% (CDK5 with p25; phosphotransferase activity, radiometric; peptide; concentration not given, 10% DMSO, added: histone substrate; reference: p5-WT peptide).
The binding of `EKVPESKVIFDANAPVAVRSKVPDSEF` is reported as greater than 2 fold (HLA-DR, human; DELFIA; peptide; 10 µM, 48 h, 37 °C; reference: peptide alone).
`BzATP` has a normalized current of 0.784 and 0.877 and 0.837 (P2X purinoceptor 7 (P2rx7, Rattus norvegicus, UniProt Q64663, I214A); ion current, agonist, two-electrode voltage clamp; Xenopus oocytes; 11 µM).
`KEGFWDRCLSVINLMSSKMLQINA` has an activity change of 54% (CDK5 with p25; phosphotransferase activity, radiometric; peptide; concentration not given, 10% DMSO, added: histone substrate; reference: p5-WT peptide).
`glutathione` gave an enzyme activity of 96.9% and 99.3% and 103% and 94.7% (Glyceraldehyde-3-phosphate dehydrogenase (GAPDH, Homo sapiens, UniProt P04406); spectrophotometric Vmax; 10 µM, added: enzyme 10 nM; reference: vehicle).
For `KEAFWDRCLSVIDLMSSKMLQINA`, the activity change was 64% (CDK5 with p25; phosphotransferase activity, radiometric; peptide; concentration not given, 10% DMSO, added: histone substrate; reference: p5-WT peptide).
`FRKKVILEDKVKNF` gave a binding of greater than 2 fold (HLA-DR, human; DELFIA; peptide; 10 µM, 48 h, 37 °C; reference: peptide alone).
The inhibition of `alpinetin` is reported as 0% (Alpha-glucosidase MAL12 (MAL12, Saccharomyces cerevisiae S288c, UniProt P53341); enzyme activity, inhibitor; concentration not given, added: p-NPG substrate).
The Vmax of `Boc-RVRR-{AMC} (N-Boc, C-AMC; Boc = CC(C)(C)OC(=O)*; AMC = Cc1cc(=O)oc2cc(N*)ccc12)` is reported as 0.00547 nmol/min/unit (Furin (FURIN, Homo sapiens, UniProt P09958); cleavage, substrate, HPLC; 15 min, 37 °C).
The activation fold of `human ME2 E90D` is reported as 0.6 (enzyme activity, activator, NADH absorbance; recombinant enzyme; range over 0 to 5 mM, pH 7.4; reference: wild type).
The Km of `BODIPY-labelled L-cystine` is reported as 1 ± 0.2 µM (P4HB; substrate, steady-state kinetics).
`KEAFWDRCLSVINLSSSKMLQINA` gave an activity change of 50% (CDK5 with p25; phosphotransferase activity, radiometric; peptide; concentration not given, 10% DMSO, added: histone substrate; reference: p5-WT peptide).
`Cbz-WEHD-CH2F (Z-WEHD-FMK; Cbz = O=C(OCc1ccccc1)*; CH2F = FC*)` has a remaining activity of roughly 8% (Caspase-5 (CASP5, Homo sapiens, UniProt P51878); inhibitor, FRET; 100 nM, 30 min preincubation, 25 nM enzyme).
`KEAFWDRCLSVINLMSSKMLQIQA` gave an activity change of 50% (CDK5 with p25; phosphotransferase activity, radiometric; peptide; concentration not given, 10% DMSO, added: histone substrate; reference: p5-WT peptide).
Under inhibition, `Tannic acid` is recorded as “inhibited” (P4HB; insulin reduction, inhibitor; 20 µM).
For `β-lactose`, “association rate constant” read 18300 M⁻¹ s⁻¹ (Frizzled-8 (Xenopus laevis, UniProt Q91719); binding, biolayer interferometry; 25 °C, added: immobilized biotinylated carbohydrate).
The binding of `RVKALFSVL` is reported as 93% (HLA class I histocompatibility antigen, B alpha chain; iTopia initial binding; peptide; 11 µM, 18 h, 21 °C, HLA-B7 allele; reference: allele positive control peptide).
For `DMTSEEVVQKMTGLKVPLSHSRSND`, “optimal inhibitory concentration” read 500 nM (Cathepsin K (Rattus norvegicus, UniProt O35186); recombinant enzyme; peptide; concentration not given).
The binding of `SRKHKWKLSGVERANSVTW` is reported as greater than 2 fold (HLA-DR, human; DELFIA; peptide; 10 µM, 48 h, 37 °C; reference: peptide alone).
For `For-MMYA (N-formyl; For = O=C*)`, the Km was 4080 ± 2800 µM (Peptide deformylase, mitochondrial (Homo sapiens, UniProt Q9HBH1); substrate, FDH/NAD+-coupled; pH 7.5).
The response amplitude of `Ivermectin` is reported as 58% (GABA-A receptor; alpha-1/beta-2/gamma-2 (Rattus norvegicus, UniProt P18508+P62813+P63138); agonist, QP-DHM; HEK293 cells; concentration not given; reference: GABA).
`TVB-3166` gave an inhibition of 7.35% (Palmitoyl-protein thioesterase 1 (Homo sapiens, UniProt P50897); enzyme activity, inhibitor; 125 µM).
The activity change of `KELFWDRCLSVINLMSSKMLQINA` is reported as 57% (CDK5 with p25; phosphotransferase activity, radiometric; peptide; concentration not given, 10% DMSO, added: histone substrate; reference: p5-WT peptide).
With `human ME2 P78D` the Hill coefficient was 1.53 ± 0.06 (enzyme activity, NADH absorbance; without fumarate, added: L-malate varied).
For `KEAFWDRCLSVINLMSSKMLQIDA`, the activity change was 65% (CDK5 with p25; phosphotransferase activity, radiometric; peptide; concentration not given, 10% DMSO, added: histone substrate; reference: p5-WT peptide).
`milbemycin oxime` gave a fraction bound of 24.5% (CDR1 (Candida albicans, UniProt Q5ANA3); binding, microscale thermophoresis; 39.1 nM).
`SVCETGSNTEE`: binding “no binding” (LC8 dynein light chain; isothermal titration calorimetry; peptide; concentration not given, 25 °C, 500 µM and 60 µM).
For `11-deoxycorticosterone`, “rate constant k-1” read 485 min⁻¹ (CYP11B2 (human); substrate binding, stopped-flow kinetic modelling; 4-state branched induced-fit model, added: equimolar adrenodoxin).
`colistin` gave an MIC of no more than 0.5 µg/mL (Escherichia coli; broth microdilution; clinical isolate RKI-No_592/16).
`KEAFWDRCLSVINLMSYKMLQINA` has an activity change of 26% (CDK5 with p25; phosphotransferase activity, radiometric; peptide; concentration not given, 10% DMSO, added: histone substrate; reference: p5-WT peptide).
`2-methylthio-ATP tetrasodium` has an inhibition of 41% (Genome polyprotein NS3 helicase domain; NS3 helicase DNA binding, fluorescence, Cy5-dT15; 100 µM).
